Measured values pooled from the literature.
Every numbered part comes from another study and shows a few of its results, in no order.
Sequence of UniProt Q8N2K1 (whole entry, looked up): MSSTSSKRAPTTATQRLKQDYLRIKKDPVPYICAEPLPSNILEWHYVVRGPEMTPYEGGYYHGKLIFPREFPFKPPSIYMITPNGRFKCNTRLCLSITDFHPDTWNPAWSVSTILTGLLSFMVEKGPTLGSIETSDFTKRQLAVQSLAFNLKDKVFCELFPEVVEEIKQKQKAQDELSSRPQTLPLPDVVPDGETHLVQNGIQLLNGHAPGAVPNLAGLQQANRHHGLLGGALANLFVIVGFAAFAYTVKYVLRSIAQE
Sequence of UniProt Q9C0C9 (whole entry, looked up): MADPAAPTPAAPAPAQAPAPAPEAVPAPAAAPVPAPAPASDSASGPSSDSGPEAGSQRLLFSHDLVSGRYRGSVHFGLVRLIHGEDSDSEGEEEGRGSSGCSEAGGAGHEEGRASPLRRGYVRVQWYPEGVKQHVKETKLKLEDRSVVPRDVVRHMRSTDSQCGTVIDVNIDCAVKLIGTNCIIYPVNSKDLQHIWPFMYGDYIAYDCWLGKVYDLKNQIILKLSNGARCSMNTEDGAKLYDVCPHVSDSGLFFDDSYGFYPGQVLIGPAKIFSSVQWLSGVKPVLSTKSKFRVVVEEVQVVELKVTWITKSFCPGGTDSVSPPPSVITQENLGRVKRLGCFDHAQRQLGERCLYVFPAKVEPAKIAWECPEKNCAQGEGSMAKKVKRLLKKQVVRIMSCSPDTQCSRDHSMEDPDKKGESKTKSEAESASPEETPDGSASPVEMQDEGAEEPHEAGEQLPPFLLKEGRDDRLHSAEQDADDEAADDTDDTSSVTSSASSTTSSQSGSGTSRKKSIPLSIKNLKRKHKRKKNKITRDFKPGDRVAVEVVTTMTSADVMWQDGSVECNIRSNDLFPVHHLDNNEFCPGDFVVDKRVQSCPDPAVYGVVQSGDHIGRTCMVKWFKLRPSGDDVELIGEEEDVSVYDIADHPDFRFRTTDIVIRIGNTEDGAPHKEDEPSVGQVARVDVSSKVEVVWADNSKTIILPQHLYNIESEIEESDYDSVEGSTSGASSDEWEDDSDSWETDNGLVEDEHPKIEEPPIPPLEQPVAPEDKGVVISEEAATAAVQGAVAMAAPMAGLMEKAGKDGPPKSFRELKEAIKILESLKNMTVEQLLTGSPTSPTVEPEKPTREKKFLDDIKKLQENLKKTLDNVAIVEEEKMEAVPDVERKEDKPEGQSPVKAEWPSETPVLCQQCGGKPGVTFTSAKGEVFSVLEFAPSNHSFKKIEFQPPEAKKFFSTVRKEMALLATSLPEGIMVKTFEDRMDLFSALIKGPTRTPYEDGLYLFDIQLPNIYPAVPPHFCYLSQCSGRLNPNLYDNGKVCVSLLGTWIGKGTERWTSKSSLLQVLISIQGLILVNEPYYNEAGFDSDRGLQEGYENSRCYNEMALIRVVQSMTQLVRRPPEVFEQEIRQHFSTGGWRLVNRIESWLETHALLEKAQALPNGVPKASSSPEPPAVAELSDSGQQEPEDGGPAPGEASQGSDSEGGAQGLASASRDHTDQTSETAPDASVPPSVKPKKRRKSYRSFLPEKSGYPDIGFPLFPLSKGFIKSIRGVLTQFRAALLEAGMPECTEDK
Sequence of UniProt P63146 (whole entry, looked up): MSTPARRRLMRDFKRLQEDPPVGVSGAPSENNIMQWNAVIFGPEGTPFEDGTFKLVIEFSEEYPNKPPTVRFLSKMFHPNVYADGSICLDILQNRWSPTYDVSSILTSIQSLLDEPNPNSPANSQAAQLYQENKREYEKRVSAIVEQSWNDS
Sequence of UniProt P28222 (whole entry, looked up): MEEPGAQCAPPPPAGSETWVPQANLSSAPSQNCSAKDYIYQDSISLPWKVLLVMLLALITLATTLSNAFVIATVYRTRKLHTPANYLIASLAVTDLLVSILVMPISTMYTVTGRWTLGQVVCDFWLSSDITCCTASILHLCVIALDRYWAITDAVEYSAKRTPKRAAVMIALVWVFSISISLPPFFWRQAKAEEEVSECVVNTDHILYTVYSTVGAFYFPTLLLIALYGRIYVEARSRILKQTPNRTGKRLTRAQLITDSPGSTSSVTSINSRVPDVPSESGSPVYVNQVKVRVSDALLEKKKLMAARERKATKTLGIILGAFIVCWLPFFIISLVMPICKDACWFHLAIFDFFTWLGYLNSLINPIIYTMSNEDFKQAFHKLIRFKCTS
Sequence of UniProt Q969T4 (whole entry, looked up): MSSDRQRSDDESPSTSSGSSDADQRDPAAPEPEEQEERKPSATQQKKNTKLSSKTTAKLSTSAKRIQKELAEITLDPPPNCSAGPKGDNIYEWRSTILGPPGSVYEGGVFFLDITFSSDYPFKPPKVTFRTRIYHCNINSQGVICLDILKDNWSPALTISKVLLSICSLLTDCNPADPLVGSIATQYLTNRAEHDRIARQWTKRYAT
Sequence of UniProt Q9Y385 (whole entry, looked up): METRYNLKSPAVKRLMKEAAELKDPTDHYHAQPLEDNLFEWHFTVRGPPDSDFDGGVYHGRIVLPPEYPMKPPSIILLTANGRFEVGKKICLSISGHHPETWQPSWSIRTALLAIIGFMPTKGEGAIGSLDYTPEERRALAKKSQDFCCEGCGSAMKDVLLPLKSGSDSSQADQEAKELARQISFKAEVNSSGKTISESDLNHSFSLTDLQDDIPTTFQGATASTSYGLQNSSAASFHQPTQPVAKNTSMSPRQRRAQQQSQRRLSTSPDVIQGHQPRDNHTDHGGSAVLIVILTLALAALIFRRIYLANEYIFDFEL
Sequence of UniProt P68036 (whole entry, looked up): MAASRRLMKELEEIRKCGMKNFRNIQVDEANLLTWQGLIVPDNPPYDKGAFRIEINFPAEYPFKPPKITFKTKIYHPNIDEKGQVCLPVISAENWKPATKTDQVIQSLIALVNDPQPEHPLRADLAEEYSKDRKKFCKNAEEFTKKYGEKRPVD
Sequence of UniProt Q16763 (whole entry, looked up): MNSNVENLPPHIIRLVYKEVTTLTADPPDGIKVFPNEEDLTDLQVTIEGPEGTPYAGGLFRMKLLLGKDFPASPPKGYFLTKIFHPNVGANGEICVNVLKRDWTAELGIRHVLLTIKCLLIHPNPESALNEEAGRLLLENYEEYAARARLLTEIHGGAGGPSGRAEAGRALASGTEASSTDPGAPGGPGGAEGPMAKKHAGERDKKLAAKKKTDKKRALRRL

Series 1
Molecule: B1 (RLIM RING domain)
Technique: yeast two-hybrid
Matrix: yeast
Setting: mostly zero background
Reference: not given
Direction: higher = stronger interaction
Quantity: lacZ reporter activity
B1: RLIM RING domain (UniProt Q9NVW2); chain SFGENDALKTCSVCITEYTEGNKLRKLPCSHEYHVHCIDRWLSENSTCPICRRAVLASGNRE
target = UBE2S UBC core domain (UniProt Q16763); result = 0
target = UBE2O UBC core domain (UniProt Q9C0C9); result = 0
target = UBE2J1 UBC core domain (UniProt Q9Y385); result = 0
target = UBE2E3 UBC core domain (UniProt Q969T4); result = 0
target = UBE2L3 UBC core domain (UniProt P68036); result = 0
target = UBE2B UBC core domain (UniProt P63146); result = 0
target = UBE2I UBC core domain (UniProt P63279); result = 0
target = UBE2J2 UBC core domain (UniProt Q8N2K1); result = 0

Series 2
Target: TAR DNA-binding protein 43, full length, His tag (TARDBP, Homo sapiens, UniProt Q13148, residues 1-414)
Technique: RNA Bind-n-Seq
Molecule type: RNA
Matrix: in vitro
Concentration: 20 nM
Setting: 6-mer, flanks averaged, single round
Together with: 150 mM KCl
Reference: input library
Direction: higher = stronger binding
Quantity: 6-mer enrichment (R)
Sequence = CGAGCU; result = 0.749
Sequence = UGAGUG; result = 1.8
Sequence = CCUAGG; result = 0.97
Sequence = UAAUAU; result = 0.697
Sequence = UUUUUG; result = 0.807
Sequence = ACGGCC; result = 0.841
Sequence = GCGGUG; result = 3.24
Sequence = CUGGAU; result = 0.734

Series 3
Target: Prothrombin, mature alpha-thrombin (F2, Homo sapiens, UniProt P00734)
Technique: aptamer microarray, sandwich
Molecule type: DNA with 2'F-ANA
Matrix: in vitro
Concentration: 200 nM
Setting: whole 15-mer aptamer, many near background
Together with: Cy3 exosite-II aptamer, 400 nM
Direction: higher = stronger binding
Quantity: mean fluorescence intensity
Sequence: GGTTGGTGTGGTTGG
Modification = 2'F-ANA at 1 3 7 10 15; result = 88.3 a.u.
Modification = 2'F-ANA at 1 3 4 5 8 11 12 13 14; result = 44.1 a.u.
Modification = 2'F-ANA at 2 5 7 9 12 14; result = 47 a.u.
Modification = 2'F-ANA at 2 6 8 9 10 11 14; result = 81.3 a.u.
Modification = 2'F-ANA at 1 2 4 6 7 8 9 11 12 13 15; result = 140 a.u.
Modification = 2'F-ANA at 1 3 4 5 9 10 15; result = 43.9 a.u.
Modification = 2'F-ANA at 1 2 4 5 6 7 11 12 13 14; result = 60.2 a.u.
Modification = 2'F-ANA at 1 4 5 7 11 13; result = 135 a.u.

Other studies, line by line
SMILES = CCCCN(CCCC)C(=O)CN1C[C@@H](c2cc(OC)c3c(c2)OCO3)[C@H](C(=O)O)[C@H]1CC(C)(C)CCC; target = 5-hydroxytryptamine receptor 1B (HTR1B, Homo sapiens, UniProt P28222); observed = ligand displacement; technique = radioligand; concentration = 10 µM; quantity = inhibition; result = -2.98%

Some of these lines once more (series 1):
target = UBE2S UBC core domain (UniProt Q16763); result = 0
target = UBE2O UBC core domain (UniProt Q9C0C9); result = 0
target = UBE2J1 UBC core domain (UniProt Q9Y385); result = 0
